Results pooled from the literature.
A part holds a random share of what one study measured.

Sample 1 — method: RNA Bind-n-Seq; form: RNA; matrix: in vitro; concentration: 20 nM; notes: 6-mer, flanks averaged, single round; with: 150 mM LiCl; relative to: input library; direction: higher = stronger binding; measurement: 6-mer enrichment (R)
Target: TAR DNA-binding protein 43, full length, His tag (TARDBP, Homo sapiens, UniProt Q13148, residues 1-414)
Sequence = UCUCGC; value = 0.831
Sequence = GGGAGU; value = 1.24
Sequence = GAGCCC; value = 1.02
Sequence = UUAAUC; value = 0.924
Sequence = CAUAGG; value = 0.884
Sequence = GGCUUG; value = 1.05
Sequence = AAUGAA; value = 0.978
Sequence = CGUGUU; value = 1.21
Sequence = CGGCCA; value = 0.902
Sequence = AUAUUC; value = 0.915
Sequence = UUCCGA; value = 0.825
Sequence = GAGAGC; value = 1
Sequence = UACUGA; value = 0.835
Sequence = UAAGUC; value = 0.871
Sequence = GUCGAG; value = 1.04

Sample 2 — method: competition protein-binding microarray; form: double-stranded DNA, one strand shown; matrix: in vitro; concentration: 2 µM; with: Pho4 competitor, 0.05 µM; direction: higher = stronger binding; measurement: fluorescence intensity
Target: Centromere-binding protein 1, full length, His-tagged (CBF1, Saccharomyces cerevisiae, UniProt P17106, residues 1-351)
Chain of UniProt P17106 (whole entry, looked up): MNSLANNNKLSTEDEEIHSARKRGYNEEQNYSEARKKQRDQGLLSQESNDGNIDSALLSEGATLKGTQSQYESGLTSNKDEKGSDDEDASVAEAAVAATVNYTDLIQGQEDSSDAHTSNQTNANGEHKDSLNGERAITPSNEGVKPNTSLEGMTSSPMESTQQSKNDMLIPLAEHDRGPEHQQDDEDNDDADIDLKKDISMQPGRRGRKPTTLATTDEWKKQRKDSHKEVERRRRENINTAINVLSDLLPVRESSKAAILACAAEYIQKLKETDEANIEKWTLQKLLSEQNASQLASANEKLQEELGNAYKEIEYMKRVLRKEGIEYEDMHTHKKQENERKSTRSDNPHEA
Notes: whole 60-bp probe, lowest competitor level
Sequence = GTCTTGTCTCATTGAGGCGTGGGTGTCCCCACTTCAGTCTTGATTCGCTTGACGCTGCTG; value = 78 a.u.
Sequence = AAATTACTAAGTTGAGTCGTGGGTGACGCCGTATGAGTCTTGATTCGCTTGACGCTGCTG; value = 72.9 a.u.
Sequence = CGTCCTAGTGATTGTCACCAAACTTCCATGAGGAAGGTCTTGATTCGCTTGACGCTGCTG; value = 75 a.u.
Sequence = GTCTTGTCTCATTGACCTGTGGGTGTCCCCACTTCAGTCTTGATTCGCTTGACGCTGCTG; value = 70 a.u.
Sequence = GCAATAATGAACCGTCACATGCAAGCCCCATACGCCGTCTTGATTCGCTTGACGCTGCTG; value = 450 a.u.
Sequence = GTCTTGTCTCATTGTTCAGTGGGTGTCCCCACTTCAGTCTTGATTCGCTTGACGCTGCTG; value = 79 a.u.
Sequence = AAAGCGGTAATTTGGTGGGTGGGTGCAGATATCTATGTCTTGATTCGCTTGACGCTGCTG; value = 83.2 a.u.
Sequence = CGTCCTAGTGATTGGAACGTGGGTGCCATGAGGAAGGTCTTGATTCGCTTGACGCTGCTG; value = 93 a.u.
Sequence = TTCTAGTTATTGTTGCTCGTGCAAAGATGTGCTGTGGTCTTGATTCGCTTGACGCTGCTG; value = 140 a.u.
Sequence = ATCCAGAACATTTTGCACGTGTTCCTTATACAGTCGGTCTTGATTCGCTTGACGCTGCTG; value = 2570 a.u.
Sequence = CGGACCCCGTCTTAGCACACGCAGACGCAGACGCAGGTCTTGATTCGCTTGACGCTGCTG; value = 52.1 a.u.
Sequence = CTTTCCCGATCTTGTCAGGTGGGTGTAGCACATTTGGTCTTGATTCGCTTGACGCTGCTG; value = 149 a.u.
Sequence = AAATTACTAAGTTGATCTGTGGGTGACGCCGTATGAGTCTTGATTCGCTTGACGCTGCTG; value = 76 a.u.
Sequence = GAAGCACTTGCCTTCACCGTGCGGAGCGTCGAATTGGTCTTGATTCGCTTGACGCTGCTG; value = 57.6 a.u.
Sequence = ACTCAGTTACTCAGTCAGCTGATGCGATGCGATGTTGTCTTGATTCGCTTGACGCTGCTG; value = 618 a.u.
Sequence = CTAACGAAGGTTTGTCACCGAACTTACAAGCCAAGTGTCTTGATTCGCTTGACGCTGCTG; value = 68 a.u.
Sequence = TCTTTCTGAATTTAGCACGCTTGGCACCGGTAGCGGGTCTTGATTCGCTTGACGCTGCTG; value = 73.3 a.u.
Sequence = GTCTTGTCTCATTGTCACGGTACTTTCCCCACTTCAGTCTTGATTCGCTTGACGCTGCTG; value = 170 a.u.
Sequence = CTAACGAAGGTTTGTTAGGTGGGTGACAAGCCAAGTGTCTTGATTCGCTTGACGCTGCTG; value = 63 a.u.
Sequence = AGAGAGTGGGATGCGGGCGTGGGTATCTGCTGTTACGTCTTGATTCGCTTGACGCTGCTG; value = 61.3 a.u.
Sequence = AGTAGCCAACTTCTTAACGTGTTGGGCAAGCAAGATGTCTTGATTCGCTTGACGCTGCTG; value = 78.1 a.u.
Sequence = AGAGAGTTGATAGAACAAAGGACAAAGAAATTTAGAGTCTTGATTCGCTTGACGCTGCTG; value = 76.4 a.u.
Sequence = AAAAAACTACCCCATCACGTGAAATTTATTAGAAAAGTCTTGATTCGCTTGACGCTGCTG; value = 4480 a.u.
Sequence = AAAAAAAAATGTGAAAACGTGATGGCATTTTTTACAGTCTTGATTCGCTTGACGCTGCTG; value = 573 a.u.
Sequence = AAAGCGGTAATTTGTTCTGTGGGTGCAGATATCTATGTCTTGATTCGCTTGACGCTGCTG; value = 62.3 a.u.

Sample 3 — method: RNA Bind-n-Seq; form: RNA; matrix: in vitro; concentration: 365 nM; relative to: no-protein control; direction: higher = stronger binding; measurement: RBNS enrichment (R)
Target: RNA binding protein fox-1 homolog 2, RRM domain, GST-SBP tag (RBFOX2, Homo sapiens, UniProt O43251-10, residues 100-194)
Notes: natural RNA segment, single round, ends assumed
Construct (chain): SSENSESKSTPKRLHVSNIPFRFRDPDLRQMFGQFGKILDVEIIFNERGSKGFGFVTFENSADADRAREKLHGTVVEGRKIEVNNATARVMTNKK
Sequence = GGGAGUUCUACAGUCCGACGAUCCAUCCUCAGCCCAUCAUUUGUGAACACUGGACUCUGAAAUAAAUGCUGCCUGUCACGUGGACACUUUCUACCGCCAGGUUCUCUUCUCAGGGAGGAAGAUAAAGGGGGAAUGGAAUUCUCGGGUGCCAA; value = 0.454
Sequence = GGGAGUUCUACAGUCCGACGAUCUGUGAGUGCCCGGCCUCCAGGUGGGGCCCCUGCCCUCUUCCAGCAGCCCAGGACACCUACGCCUCGUCCCUCGGUGCCUGGGUCCAGCCCUGUGCCCCUCUGUCCGCCUCUGGAAUUCUCGGGUGCCAA; value = 0.409
Sequence = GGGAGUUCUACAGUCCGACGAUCCCCUCGCUUUGGCUAGAAACACAUUAACUGGUUUACUCAUUGGGAAUCCAGCAUAUUUAAGAGGUAAUCCUGUGUUUUCUGCAACAUUGAGGCAUUCAUACAGAGCUGCAUGGAAUUCUCGGGUGCCAA; value = 1.26
Sequence = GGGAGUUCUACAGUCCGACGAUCGUGUCUCGUUCUCCACGGUGCUGGAGACCUCAUUACUUUGGAAAACUCACUGUUCCCCAGCACAGCACAGCUGCAUGACCUCAGCUUCAGACUGAUGUCAGCCAGCCUUCUGGAAUUCUCGGGUGCCAA; value = 0.261
Sequence = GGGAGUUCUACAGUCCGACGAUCAGUAUAUUGUCAUGUGAAAGUGUGGAAUGGAAGAAAUGUCGAUCCUGUUGUAACUGAUUGUGAACACUUUUAUGAGCUUUAAAAUAAAGUUCAUCUUAUGGUGUCAUUUCUGGAAUUCUCGGGUGCCAA; value = 0.636
Sequence = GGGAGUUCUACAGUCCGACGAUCGAGGUGUAGACUCAGCCUCACUCUGUACAAGAGCCAGGUGAGAAUUUCAAGGAUUAUCGACUUCAUAUUGCACAUUAAAGUUACAAAUUAAAGUGGCUUGGUCAAGAAUGUGGAAUUCUCGGGUGCCAA; value = 1.07
Sequence = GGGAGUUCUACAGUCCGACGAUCCUAUUAUGUUGGCAGUGGGUGGCAGGCAGAGGCAGGCACGCGAUUAGUAGAGCCCUGCUUGGGCCUCACUUUGUGGACACCAGGCUGGUGCACCUCCCUUUUCAGGCACUUGGAAUUCUCGGGUGCCAA; value = 2.32
Sequence = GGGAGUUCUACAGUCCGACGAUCUGUCAGUCACAUAGGACAGGAUAUUUAAUGUACUUUUCCUUUCUCUGAGCCACAGUUAGCUGCUAUUUUGAGGCAUCCAAGGGGAAGUGGGCUGAAAAACGCCACACUCAUGGAAUUCUCGGGUGCCAA; value = 0.447
Sequence = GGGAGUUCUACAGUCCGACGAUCUUGGACAUUACAAUGUAAAACACAUUUUCUUCAAACACGUUUUCCCUUUUGUUUCAAAAAAUGUAAUAUUUUCCCCCAAGCGUUUUAUAUUUAUGUAUUUUGUAUUCAAUUGGAAUUCUCGGGUGCCAA; value = 0.504

Sample 4 — method: RNA Bind-n-Seq; form: RNA; matrix: in vitro; concentration: 200 nM; notes: whole 134-nt RNA, ends assumed; with: 150 mM LiCl; relative to: input library; direction: higher = stronger binding; measurement: log2 enrichment; library: 7-deaza-guanosine replaces G
Target: Ras GTPase-activating protein-binding protein 1, full length (G3BP1, Homo sapiens, UniProt Q13283)
Chain of UniProt Q13283 (whole entry, looked up): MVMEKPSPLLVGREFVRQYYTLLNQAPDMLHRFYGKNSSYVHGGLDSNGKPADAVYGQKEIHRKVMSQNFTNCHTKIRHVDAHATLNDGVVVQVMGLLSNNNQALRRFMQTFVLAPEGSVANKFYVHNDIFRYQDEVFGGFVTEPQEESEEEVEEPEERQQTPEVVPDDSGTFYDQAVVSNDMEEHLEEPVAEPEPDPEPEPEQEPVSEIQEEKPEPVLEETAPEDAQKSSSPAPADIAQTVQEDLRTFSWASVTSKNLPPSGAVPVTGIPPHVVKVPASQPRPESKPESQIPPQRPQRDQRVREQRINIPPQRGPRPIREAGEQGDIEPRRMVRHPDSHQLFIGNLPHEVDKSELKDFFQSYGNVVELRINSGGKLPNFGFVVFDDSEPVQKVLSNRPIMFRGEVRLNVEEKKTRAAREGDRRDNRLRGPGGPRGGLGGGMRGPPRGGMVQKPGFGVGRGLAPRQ
Sequence = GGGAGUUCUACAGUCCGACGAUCUGGUGACCUACCUGGACGUCCGGAGCUGCCUUGGACACCUAGGCUACCUGGGCUACCCCACCCUCUGUGAGCAGGACCAGGCCCAUGCCAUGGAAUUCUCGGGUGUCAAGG; value = -0.381
Sequence = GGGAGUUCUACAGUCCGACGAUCUCAAGUCCUGUGCUACACAUCGUAUGUACCGAAUCGGGCCCGGGGCCCGGCCCGGAAAGUAUUAUGUUACGCCGUUCGGAUCUGCACUUCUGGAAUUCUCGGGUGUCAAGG; value = -1.86
Sequence = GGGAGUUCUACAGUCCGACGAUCUGAAGACACAGCAUCCACCCGAUCUUCAUUCACUGUCCAAGACCUUAAACCUUUUACAGAAUAUGUGUUUAGGAUUCGCUGUAUGAAGGAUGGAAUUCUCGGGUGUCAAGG; value = -1.15
Sequence = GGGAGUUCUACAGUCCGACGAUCUAACCUUAGAGGAGGAUCUGAUGGAUAUGGCAGUGGACGUGGAUUUGGGGAUGGCUAUAAUGGGUAUGGAGGAGGACCUGGAGGUGGCAAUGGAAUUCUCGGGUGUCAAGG; value = -0.0553
Sequence = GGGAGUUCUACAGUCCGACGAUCUAACUUUAGAGGAGGAUCUUAUGGAUAUGGCAGUGGACGUGGAUUUGGGGAUGGCUAUAAUGGGUAUGGAGGAGGACCUGGAGGUGGCAAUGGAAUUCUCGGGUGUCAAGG; value = 0.0191
Sequence = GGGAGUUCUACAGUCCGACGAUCAAGUCCUGUGCUACACAUCGUAUGUACCGAAUCGGUUUUUGGUUUUUUUGGAAAGGAAAGUAUUAUGUUACGCCGUUCGGAUCUGCACUUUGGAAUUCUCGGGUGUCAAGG; value = -0.981
Sequence = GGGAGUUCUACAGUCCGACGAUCCUGUGCUACACAUCGUAUGUACCGAAUCGGGGAAAAAAAGGGAAAAAAAGGGAAAAAAAGGGAAAGUAUUAUGUUACGCCGUUCGGAUCUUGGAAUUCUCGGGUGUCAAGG; value = 0.358
Sequence = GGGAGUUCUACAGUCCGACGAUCCCUCAAGUCCUGUGCUACACAUCGUAUGUACCGAAUCGGAGGAAAGGAAAGGAAAGUAUUAUGUUACGCCGUUCGGAUCUGCACUUCCAGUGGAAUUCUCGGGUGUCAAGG; value = -0.746
Sequence = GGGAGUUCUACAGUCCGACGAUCCCUGUGCUACACAUCGUAUGUACCGAAUCGGGGAAAAAAAGGGGUUUUUGGGGUUUGGGGAAAGUAUUAUGUUACGCCGUUCGGAUCUGCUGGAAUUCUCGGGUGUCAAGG; value = -1.16
Sequence = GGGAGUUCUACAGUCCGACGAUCAAGUCCUGUGCUACACAUCGUAUGUACCGAAUCGGAAAAAAAGGUUUUUUUGGUGGAAAGUAUUAUGUUACGCCGUUCGGAUCUGCACUUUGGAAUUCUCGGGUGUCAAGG; value = -2.23
Sequence = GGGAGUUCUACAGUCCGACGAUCUAACUUUAGAGGAGGAUCUGAUGGAUAUGGCAGUGGACGUGGAUUUGGGGAUGGCUAUAAUGGGUAUGGAGGAGGACCUGGAGGUGGAAAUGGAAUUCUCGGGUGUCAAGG; value = 0.151

Some of these lines once more (sample 1):
Sequence = GGCUUG; value = 1.05
Sequence = AAUGAA; value = 0.978
Sequence = CGUGUU; value = 1.21
Sequence = CGGCCA; value = 0.902
Sequence = AUAUUC; value = 0.915
Sequence = UUCCGA; value = 0.825
